# Assay results collected from several papers.
# Numbered parts are unrelated; each lists some results of a single study.
# UniProt Q9SV15, sequence (228-325, looked up): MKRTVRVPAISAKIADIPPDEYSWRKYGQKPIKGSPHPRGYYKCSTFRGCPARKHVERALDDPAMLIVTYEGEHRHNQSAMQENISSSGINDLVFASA

# Series 1
# Target: Eukaryotic initiation factor 4A-I (EIF4A1, Homo sapiens, UniProt P60842, residues 1-406, full length assumed)
# UniProt P60842, sequence (whole entry, looked up): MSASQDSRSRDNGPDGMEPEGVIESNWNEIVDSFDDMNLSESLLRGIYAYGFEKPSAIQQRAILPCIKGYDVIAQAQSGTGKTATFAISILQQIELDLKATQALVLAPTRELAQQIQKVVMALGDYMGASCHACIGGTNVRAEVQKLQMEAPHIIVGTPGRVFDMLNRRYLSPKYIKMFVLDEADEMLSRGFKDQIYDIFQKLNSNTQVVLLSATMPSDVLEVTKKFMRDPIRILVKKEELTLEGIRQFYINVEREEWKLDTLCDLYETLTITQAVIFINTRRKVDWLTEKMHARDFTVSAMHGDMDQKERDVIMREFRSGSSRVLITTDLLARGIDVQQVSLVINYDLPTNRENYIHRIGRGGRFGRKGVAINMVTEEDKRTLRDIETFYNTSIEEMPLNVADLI
# Technique: RNA Bind-n-Seq
# Form: RNA
# Medium: in vitro
# Tested at: 15 pmol
# Notes: 4-mer, random 30-nt RNA, single round
# Added: 3 µM RocA, 2 mM AMP-PNP
# Relative to: mean of 4-mers
# Reading: higher = stronger binding
Sequence,4-mer enrichment Z-score
GCAC,-0.893
CCUG,-0.603
UUCA,-1.44

# Series 2
# Target: Replicase polyprotein 1ab, polymerase (rep, Severe acute respiratory syndrome coronavirus 2, UniProt P0DTD1)
# Effect on: enzyme activity
# Mode: inhibitor
# Tested at: 20 µM
Structure (SMILES),inhibition [%]
c1ccc(CCCCN2CCC(c3ccccc3)CC2)cc1,-4.45
COC(=O)[C@@H]1CC2=CC(=O)CC[C@]2(C)[C@@]23O[C@@H]2C[C@@]2(C)[C@@H](CC[C@@]24CCC(=O)O4)[C@H]13,0.18
CCOC(=O)[C@H](CCc1ccccc1)N[C@@H](C)C(=O)N1Cc2ccccc2C[C@H]1C(=O)O,2.09
c1ccc([C@H]2CN3CCSC3=N2)cc1,-1.55
COc1ccc2c(c1)C(=O)N(CCc1ccc(S(=O)(=O)NC(=O)NC3CCCCC3)cc1)C(=O)C2(C)C,6.2
C=C[C@@H]1C2=CCOC(=O)C2=CO[C@H]1O[C@@H]1O[C@H](CO)[C@@H](O)[C@H](O)[C@H]1O,-7.02
O=C(CNC(=O)c1cccc(C(F)(F)F)c1)N[C@@H]1CCN(Cc2ccc(Cl)cc2)C1,-2.5
C[C@@H]1CN(Cc2ncccn2)C[C@H]1c1nc2c(cnn2C2CCOCC2)c(=O)[nH]1,-2.61
CC(=C\c1ccc(Cl)cc1)/C(C)=N/O,-6.11
O=C(O)c1c2ccccc2cc2ccccc12,-0.96
COC(=O)N(C)c1c(N)nc(-c2nn(Cc3ccccc3F)c3ncccc23)nc1N,0.09
O=C1Nc2ccc(Cl)cc2[C@@](C#CC2CC2)(C(F)(F)F)O1,1.26
Nc1ncnc2c1ncn2[C@H]1CC[C@@H](CO)O1,-0.27
CO/N=C(\C(=O)N[C@@H]1C(=O)N2C(C(=O)OCOC(=O)C(C)(C)C)=C(/C=C\c3scnc3C)CS[C@H]12)c1csc(N)n1,-3.93
C/C(=C\c1csc(C)n1)[C@@H]1C[C@@H]2O[C@]2(C)CCC[C@H](C)[C@H](O)[C@@H](C)C(=O)C(C)(C)[C@@H](O)CC(=O)N1,-4.44
C[C@]12CCC(=O)C=C1CC[C@@H]1[C@@H]2CC[C@@]2(C)[C@H]1CC[C@]2(O)C(=O)CO,-7.54
COc1ccsc1CNCC[C@@]1(c2ccccn2)CCOC2(CCCC2)C1,1.29
CCOC(=O)[C@H](CCc1ccccc1)N[C@@H](C)C(=O)N1C(=O)N(C)C[C@H]1C(=O)O,-2.21
Cc1ccc(NC(=O)C2(c3ccc4c(c3)OC(F)(F)O4)CC2)nc1-c1cccc(C(=O)O)c1,1.87
Nc1nc2n[nH]nc2c(=O)[nH]1,3.48
Cn1cc(-c2[nH]c3cc(NC(=O)[C@H](N)C4CCCCC4)cc4c3c2C=NNC4=O)cn1,55.5
Cc1ccc(OCCSc2ncccn2)c(Br)c1,4.21
CS(=O)(=O)c1ccc(-c2cnc(NCc3ccco3)n3cnnc23)cc1,-4.84
CC(C)NCC(O)c1ccc(O)c(O)c1 (stereo not drawn),19.4
CCNC(=O)c1noc(-c2cc(C(C)C)c(O)cc2O)c1-c1ccc(CN2CCOCC2)cc1,-4.49

# Series 3
# Cell line: HEK-293T
# Effect on: pseudovirus infection
# Organism: VSV pseudotyped with SARS-CoV-2 spike
# Tested at: 10 µM
# Time: 16 h
# Relative to: vehicle-treated
Compound,GFP-positive cells [%]
CC[C@@H]([C@H](C)O)n1ncn(-c2ccc(N3CCN(c4ccc(OC[C@@H]5CO[C@@](Cn6cncn6)(c6ccc(F)cc6F)C5)cc4)CC3)cc2)c1=O,107
O=C(NC1CCN(CCCCC2(C(=O)NCC(F)(F)F)c3ccccc3-c3ccccc32)CC1)c1ccccc1-c1ccc(C(F)(F)F)cc1,22.1
CC(=O)Nc1cccc(-n2c(=O)n(C3CC3)c(=O)c3c(Nc4ccc(I)cc4F)n(C)c(=O)c(C)c32)c1,87.1

# Series 4
# Target: RING finger protein unkempt homolog, zinc fingers 1-6, SBP tag (UNK, Homo sapiens, UniProt Q9C0B0, residues 30-357)
# UniProt Q9C0B0, sequence (30-357, looked up): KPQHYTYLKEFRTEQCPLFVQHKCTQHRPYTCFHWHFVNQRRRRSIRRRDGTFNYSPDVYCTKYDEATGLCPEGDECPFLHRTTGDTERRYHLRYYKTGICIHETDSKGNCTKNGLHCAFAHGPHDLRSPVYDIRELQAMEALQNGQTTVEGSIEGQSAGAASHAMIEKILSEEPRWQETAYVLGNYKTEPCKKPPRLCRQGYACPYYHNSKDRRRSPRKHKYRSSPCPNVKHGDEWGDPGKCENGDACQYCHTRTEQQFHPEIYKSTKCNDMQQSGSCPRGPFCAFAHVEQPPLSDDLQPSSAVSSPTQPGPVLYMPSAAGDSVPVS
# Technique: RNA Bind-n-Seq
# Form: RNA
# Medium: in vitro
# Tested at: 100 nM
# Notes: RNA with constant flanks, vertebrate orthologous sites, ends assumed
# Relative to: input RNA pool
# Reading: higher = stronger binding
# All sequences stand within: GGGAGUUCUACAGUCCGACGAUC … CAACAGAGGAUUGAGCAUCA
Sequence,bound/input enrichment
AGAAAAUUUUAACCAUGAAUCUGAAAGUAGAAAUACAGGUCCAUGGUUAUCUUCCUCACUUAGAAAUAGAUGCACACCUUUGUUCUCUAGAAGGAGAAGAGAGGGAAGAGAUGAAUCUUC,0.953 ratio
UAUAAGAACUCGUGCAGUCUUAGAUGUUUUAAAAAUAUAUAUCUGAAUUGUAAGAGUUGUUAGCACAAGUUUUUUUUUUUUAAGCACUUGUUUUGGGUACAAGGCAUUUCUGACAUUUUA,0.297 ratio
UAUUCGUGUCAUACCAGCAUAUUAUCUUCUCGUCUGUGCACAGCUUCAAAUGUUACCGUCUAGUUAGAUUUUUAUUUAAAAUAUGAAAAACUGCUUUUCCCAAGACGUUUUUUAAAAACA,1.12 ratio
GCUCUAUAACAAGUAGAAUGAGCUCCCCUUUCUACUUCUUCCGGGAGCAAAACCCCCCAAAAAAUUCCAGACACAUCUGAUUAUACUGUUCUGUUUUUGGUUUUUAUUAUUUUUACAUAU,1.36 ratio
AGUAGUUGUAAGCUUGUUUGCACAGUUCUUUUUUUCCAUUGGAAAUGGAAUUCAUUGCCUUAGGUCUUUUUAAAUAGUGUAUUAUCGUUGGGGCUGGCUCUGUGCUUGAAAACCAGUUUA,2.88 ratio
CUCAGAAGAGCUGCAUAGGGUCCUGUUCUCCGUAGAACACUCUGUCUCUGUUCUGUGGCCCUCGGGGUGCGGCAGGGGUGGCGGUGCGCCCCAGCCCUGAGGCUCGAGUGUGUGUGGCUC,0.38 ratio
GUUAGGUCAUGACCCUUAUAGGUUGGGUCAUGACGCCUACAGGUUAGGGCAGGACCCCUAUAGAUUAGGCCAUGAUCCCUAUAGACUAACUCCUGAUCCCUAUAGGAUGUCACCUAGACC,0.722 ratio
GGGUGGCCGGUGGGGGAAUCCCAUGCCCUGACCUUGCCUCCCCUCCCUGCCACCCGCUCCUAGUUAUUAUUUUUUUUUUAAACCACCAUGUGAUUAAGGUCGGCGCUGCCUCCGACCCAC,5.72 ratio

# Series 5
# Target: Hepatocyte nuclear factor 3-alpha (Foxa1, Mus musculus, UniProt P35582, residues 1-468, full length assumed)
# Technique: EMSA with sequencing
# Form: double-stranded DNA, one strand shown
# Medium: in vitro
# Tested at: 10 and 20 nM
# Notes: whole designed probe, mean of two concentrations, ends assumed
# Relative to: negative control set to 0
# Reading: higher = stronger binding
# All sequences stand within: GTGAGCGGTGCCCATTGATGGGGAAC … TTTCACTGGGATCGTGGGGAC
# Residues (chain): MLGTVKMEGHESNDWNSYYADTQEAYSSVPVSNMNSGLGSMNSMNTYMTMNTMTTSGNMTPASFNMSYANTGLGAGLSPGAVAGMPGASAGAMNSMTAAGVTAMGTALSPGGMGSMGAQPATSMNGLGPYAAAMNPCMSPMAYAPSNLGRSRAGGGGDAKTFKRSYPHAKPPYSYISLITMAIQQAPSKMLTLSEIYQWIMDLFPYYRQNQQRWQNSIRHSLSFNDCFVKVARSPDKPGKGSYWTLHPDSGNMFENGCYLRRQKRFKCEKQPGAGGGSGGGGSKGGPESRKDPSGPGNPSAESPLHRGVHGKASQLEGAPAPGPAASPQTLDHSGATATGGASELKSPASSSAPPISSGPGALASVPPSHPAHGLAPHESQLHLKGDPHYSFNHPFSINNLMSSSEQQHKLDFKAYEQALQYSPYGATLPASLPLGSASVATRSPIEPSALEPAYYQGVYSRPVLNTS
Sequence,normalised bound fraction
TCATTCTACCTGAGGAGTTGATATCTGACAGGTCTACATCTGAATTATTGTAAATGTATGTATTTTCATATGAGCATGCAAAGACATTCAAAGTAATCTAAAATAAATGCTAATTAATTAAATTATAATGCAAAAGCAGGGCTTCCTCACCTACAACTTTGTTAAATTTAGATCTCTTTGGAAAACACATTGT,0.0287 ratio
GGCATGAAGCAGCTGCTATAACAGAATGTGAAGCTGGGAGGTCTTAACTCTTAGATATACTGTATTTTCTCCCTCAGGCTTGCATGAGTCACTGTTTACCTACAGAGAAGAAAGAGCACTGGTCTTTGTCAATAGCCCTCACTGAGTTGAGAGATAACAGTTTCCCCATGGGAATCCTTGGTATGGATTAGAT,0.234 ratio
AGGTGAATTGGCTGCTTCCATCCTGGCTTGGAACTTCAGACATAGAAGCCTTGGGACTTTCTCAGGACTTTCTCCAGATCTGTCACATGCTCAGCAAACAAGCATCTCTGTGCTGACTCATGCCTTAGCCAGGGATGTTGGTGAAACTGTGTGTTGGTCTAGGTACCTAGCCCATGCTAGGTGCTCATCGAAT,0.106 ratio
TGCACCACTCAGCCCCTCCTAGTCCGCTGGAGAAAGTGGCTGAGGGGGTGGTGGGGGATAATTGCATTTCCAAAGTCCGGGCAATCAGCCAATGTAAACAGGCACCAGCGTCTCTGTGTGGGCTCTCTAGGCAACAGGTAAAATACATCAAATACACACAATTTCCTGACATTCCAATGCATTTCTGCGTGAG,0.284 ratio
CAGGTTCTCCAGACTAACTAGACATTGGCAGGGTTGACTGATATTCTGCCAGCAAATCCCTCTTCTGCTCTAGTCAGCCAGGGCTGGTGACTGTGTAAACAAGACCCCTCTCACTCCTCCCACAGCTGTGCTGCAGATGACACACACACTTCTCTTAACAATTTTTATTGAAGAAAAAATAGGCTGCTTTGCA,0.429 ratio

# Series 6
# Target: Replicase polyprotein 1ab, main protease (rep, Severe acute respiratory syndrome coronavirus 2, UniProt P0DTD1)
# Effect on: enzyme activity
# Mode: inhibitor
# Tested at: 20 µM
# Notes: hit confirmation
Compound,inhibition [%]
CCOc1ccc(Nc2nc(-c3c(C)nc4ccccn34)cs2)cc1,81.2
Sc1nnc(-c2ccccc2Cl)o1,68.3
CC(C)(C)c1ccc(S(=O)(=O)/C=C/C#N)cc1,98.9
COc1cc(N(C)C)cc(CN(C)CCc2ccc([N+](=O)[O-])cc2)c1O,104

# Mixed results
# Technique: DNA-protein interaction ELISA
# Form: double-stranded DNA, one strand shown
# Medium: in vitro, bacterial lysate
# Tested at: not given
# Notes: whole dsDNA probe, crude lysate protein
# Relative to: highest signal in screen
# Reading: higher = stronger binding
# WRKY33 N-terminal DNA-binding domain: Probable WRKY transcription factor 33, N-terminal DNA-binding domain (WRKY33, Arabidopsis thaliana, UniProt Q8S8P5, residues 169-264)
# UniProt Q8S8P5, sequence (169-264, looked up): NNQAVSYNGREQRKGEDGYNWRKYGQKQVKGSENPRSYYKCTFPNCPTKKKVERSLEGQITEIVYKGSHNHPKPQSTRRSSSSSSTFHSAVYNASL
Sequence,target,relative absorbance
AAAAAAATCCGATCGATGCATATATAAAA,WRKY33 N-terminal DNA-binding domain,20.8 % of maximum
AAAAAATTCCGCGTGTATGTGTACGTAAAA,"Probable WRKY transcription factor 11, DNA-binding domain (WRKY11, Arabidopsis thaliana, UniProt Q9SV15, residues 228-325)",16.4 % of maximum
AAAAAAGACACTCTAATTCCGTAGGCAAAA,WRKY33 N-terminal DNA-binding domain,23.1 % of maximum

# Repeated from above (series 2):
Structure (SMILES),inhibition [%]
Cc1ccc(NC(=O)C2(c3ccc4c(c3)OC(F)(F)O4)CC2)nc1-c1cccc(C(=O)O)c1,1.87
O=C1Nc2ccc(Cl)cc2[C@@](C#CC2CC2)(C(F)(F)F)O1,1.26
CC(=C\c1ccc(Cl)cc1)/C(C)=N/O,-6.11
CCNC(=O)c1noc(-c2cc(C(C)C)c(O)cc2O)c1-c1ccc(CN2CCOCC2)cc1,-4.49
COC(=O)[C@@H]1CC2=CC(=O)CC[C@]2(C)[C@@]23O[C@@H]2C[C@@]2(C)[C@@H](CC[C@@]24CCC(=O)O4)[C@H]13,0.18
O=C(O)c1c2ccccc2cc2ccccc12,-0.96
COC(=O)N(C)c1c(N)nc(-c2nn(Cc3ccccc3F)c3ncccc23)nc1N,0.09
C=C[C@@H]1C2=CCOC(=O)C2=CO[C@H]1O[C@@H]1O[C@H](CO)[C@@H](O)[C@H](O)[C@H]1O,-7.02
